Measured values gathered from unrelated publications.
Compare with care: the assays were run in different laboratories. Several values in a cell are separate wells, animals, samples, runs or records.
CA9: Carbonic anhydrase 9 (CA9, Homo sapiens, UniProt Q16790)
CHEK1: Serine/threonine-protein kinase Chk1 (CHEK1, Homo sapiens, UniProt O14757)
Chain of UniProt O14757 (whole entry, looked up): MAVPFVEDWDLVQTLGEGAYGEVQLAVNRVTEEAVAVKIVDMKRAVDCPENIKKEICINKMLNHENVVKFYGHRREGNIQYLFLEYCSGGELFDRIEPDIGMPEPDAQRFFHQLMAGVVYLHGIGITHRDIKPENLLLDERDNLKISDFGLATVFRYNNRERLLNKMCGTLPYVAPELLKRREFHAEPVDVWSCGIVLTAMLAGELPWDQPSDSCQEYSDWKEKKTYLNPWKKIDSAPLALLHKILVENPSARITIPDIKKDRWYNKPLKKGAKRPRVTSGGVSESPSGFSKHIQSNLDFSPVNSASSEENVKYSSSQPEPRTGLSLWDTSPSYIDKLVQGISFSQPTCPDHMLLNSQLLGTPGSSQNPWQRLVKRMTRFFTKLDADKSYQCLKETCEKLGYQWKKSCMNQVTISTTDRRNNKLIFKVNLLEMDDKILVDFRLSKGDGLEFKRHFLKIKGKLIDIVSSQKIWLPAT
FLT3 ITD: Receptor-type tyrosine-protein kinase FLT3 (FLT3, Homo sapiens, UniProt P36888, ITD)
PIK3CD: Phosphatidylinositol 4,5-bisphosphate 3-kinase catalytic subunit delta isoform (PIK3CD, Homo sapiens, UniProt O00329)
Chain of UniProt O00329 (whole entry, looked up): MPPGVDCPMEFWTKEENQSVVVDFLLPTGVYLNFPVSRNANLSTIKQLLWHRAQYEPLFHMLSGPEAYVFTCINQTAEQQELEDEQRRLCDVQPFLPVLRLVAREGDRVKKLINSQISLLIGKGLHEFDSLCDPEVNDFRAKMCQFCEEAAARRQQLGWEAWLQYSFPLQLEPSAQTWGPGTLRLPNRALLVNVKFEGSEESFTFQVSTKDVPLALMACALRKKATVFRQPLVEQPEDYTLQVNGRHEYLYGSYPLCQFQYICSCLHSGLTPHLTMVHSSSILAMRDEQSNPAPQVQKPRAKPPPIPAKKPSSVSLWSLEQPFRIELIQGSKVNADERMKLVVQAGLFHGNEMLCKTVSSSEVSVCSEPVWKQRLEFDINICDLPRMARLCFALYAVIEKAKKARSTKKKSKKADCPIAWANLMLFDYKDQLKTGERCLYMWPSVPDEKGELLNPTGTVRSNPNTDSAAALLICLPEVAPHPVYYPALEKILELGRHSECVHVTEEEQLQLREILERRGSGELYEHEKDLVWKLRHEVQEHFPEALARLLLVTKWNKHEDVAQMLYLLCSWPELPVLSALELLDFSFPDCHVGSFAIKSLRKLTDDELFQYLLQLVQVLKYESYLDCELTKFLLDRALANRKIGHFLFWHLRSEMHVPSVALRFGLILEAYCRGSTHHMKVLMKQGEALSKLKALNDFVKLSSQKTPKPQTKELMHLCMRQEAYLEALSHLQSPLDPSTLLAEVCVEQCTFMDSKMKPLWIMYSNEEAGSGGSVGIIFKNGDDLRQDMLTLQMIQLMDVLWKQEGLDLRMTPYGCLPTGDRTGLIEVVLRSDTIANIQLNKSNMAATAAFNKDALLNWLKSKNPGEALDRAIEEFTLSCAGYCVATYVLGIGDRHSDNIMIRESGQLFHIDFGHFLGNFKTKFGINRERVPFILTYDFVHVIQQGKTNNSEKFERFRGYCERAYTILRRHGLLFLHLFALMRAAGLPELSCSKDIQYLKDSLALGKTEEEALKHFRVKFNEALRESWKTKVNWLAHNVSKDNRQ
MTNR1A: Melatonin receptor type 1A (MTNR1A, Homo sapiens, UniProt P48039)
Chain of UniProt P48039 (whole entry, looked up): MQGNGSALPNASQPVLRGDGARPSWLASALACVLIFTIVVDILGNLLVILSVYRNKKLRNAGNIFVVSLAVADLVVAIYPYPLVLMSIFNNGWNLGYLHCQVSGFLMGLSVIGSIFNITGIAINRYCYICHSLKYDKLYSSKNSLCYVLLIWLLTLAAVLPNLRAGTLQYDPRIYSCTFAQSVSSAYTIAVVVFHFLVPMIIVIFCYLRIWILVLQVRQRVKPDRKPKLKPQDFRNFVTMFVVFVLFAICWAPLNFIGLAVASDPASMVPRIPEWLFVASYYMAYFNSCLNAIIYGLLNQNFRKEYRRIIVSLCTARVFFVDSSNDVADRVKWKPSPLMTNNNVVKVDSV
PIK3CA: Phosphatidylinositol 4,5-bisphosphate 3-kinase catalytic subunit alpha isoform (PIK3CA, Homo sapiens, UniProt P42336)
Chain of UniProt P42336 (whole entry, looked up): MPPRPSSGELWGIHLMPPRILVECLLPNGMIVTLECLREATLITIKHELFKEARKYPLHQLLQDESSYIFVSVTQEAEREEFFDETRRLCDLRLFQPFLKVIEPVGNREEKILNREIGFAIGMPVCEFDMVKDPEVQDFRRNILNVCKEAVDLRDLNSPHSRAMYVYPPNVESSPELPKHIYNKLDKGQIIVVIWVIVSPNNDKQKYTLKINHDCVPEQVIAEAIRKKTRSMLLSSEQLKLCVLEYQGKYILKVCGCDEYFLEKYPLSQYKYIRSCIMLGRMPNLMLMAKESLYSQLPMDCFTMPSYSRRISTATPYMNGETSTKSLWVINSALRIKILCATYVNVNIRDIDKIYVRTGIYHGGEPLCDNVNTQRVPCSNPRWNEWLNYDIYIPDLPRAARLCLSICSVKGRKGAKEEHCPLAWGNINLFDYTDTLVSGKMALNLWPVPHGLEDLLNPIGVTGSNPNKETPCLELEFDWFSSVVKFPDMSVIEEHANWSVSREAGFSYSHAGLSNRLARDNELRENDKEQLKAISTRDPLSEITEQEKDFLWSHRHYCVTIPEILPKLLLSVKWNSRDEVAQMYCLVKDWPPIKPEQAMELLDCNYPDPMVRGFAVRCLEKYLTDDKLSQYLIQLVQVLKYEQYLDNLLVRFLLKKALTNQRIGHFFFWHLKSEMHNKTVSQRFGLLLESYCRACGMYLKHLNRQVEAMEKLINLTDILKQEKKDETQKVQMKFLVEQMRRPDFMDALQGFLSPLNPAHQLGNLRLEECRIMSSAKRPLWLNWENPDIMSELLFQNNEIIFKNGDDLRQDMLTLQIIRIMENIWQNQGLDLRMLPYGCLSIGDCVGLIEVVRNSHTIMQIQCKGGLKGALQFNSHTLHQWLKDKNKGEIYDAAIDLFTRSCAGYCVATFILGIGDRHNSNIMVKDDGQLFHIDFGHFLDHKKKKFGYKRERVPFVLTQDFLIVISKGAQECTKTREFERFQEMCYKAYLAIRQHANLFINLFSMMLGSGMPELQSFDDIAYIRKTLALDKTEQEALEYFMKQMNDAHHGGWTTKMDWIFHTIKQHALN
AMY2: Pancreatic alpha-amylase (AMY2, Sus scrofa, UniProt P00690)
Chain of UniProt P00690 (whole entry, looked up): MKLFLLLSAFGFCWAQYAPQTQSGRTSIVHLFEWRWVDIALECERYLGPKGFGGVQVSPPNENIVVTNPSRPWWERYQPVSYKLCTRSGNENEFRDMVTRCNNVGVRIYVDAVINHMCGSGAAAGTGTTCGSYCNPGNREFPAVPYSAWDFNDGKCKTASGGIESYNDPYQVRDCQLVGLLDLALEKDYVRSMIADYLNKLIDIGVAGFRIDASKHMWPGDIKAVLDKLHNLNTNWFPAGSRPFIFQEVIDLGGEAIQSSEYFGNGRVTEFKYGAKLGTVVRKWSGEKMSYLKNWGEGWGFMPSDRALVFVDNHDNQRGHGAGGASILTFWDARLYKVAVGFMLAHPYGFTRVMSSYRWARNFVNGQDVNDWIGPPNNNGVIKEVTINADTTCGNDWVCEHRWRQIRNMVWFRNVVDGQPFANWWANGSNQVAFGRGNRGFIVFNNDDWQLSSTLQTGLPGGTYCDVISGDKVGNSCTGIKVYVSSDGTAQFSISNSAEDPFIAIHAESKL
PPO3: PPO3 (Agaricus bisporus, UniProt C7FF04)
DYRK1A: Dual specificity tyrosine-phosphorylation-regulated kinase 1A (DYRK1A, Homo sapiens, UniProt Q13627)
PTK6: Protein-tyrosine kinase 6 (PTK6, Homo sapiens, UniProt Q13882)
rep papain-like protease: Replicase polyprotein 1ab, papain-like protease (rep, Porcine epidemic diarrhea virus, UniProt P0C6Y4)
Chain of UniProt P08684 (whole entry, looked up): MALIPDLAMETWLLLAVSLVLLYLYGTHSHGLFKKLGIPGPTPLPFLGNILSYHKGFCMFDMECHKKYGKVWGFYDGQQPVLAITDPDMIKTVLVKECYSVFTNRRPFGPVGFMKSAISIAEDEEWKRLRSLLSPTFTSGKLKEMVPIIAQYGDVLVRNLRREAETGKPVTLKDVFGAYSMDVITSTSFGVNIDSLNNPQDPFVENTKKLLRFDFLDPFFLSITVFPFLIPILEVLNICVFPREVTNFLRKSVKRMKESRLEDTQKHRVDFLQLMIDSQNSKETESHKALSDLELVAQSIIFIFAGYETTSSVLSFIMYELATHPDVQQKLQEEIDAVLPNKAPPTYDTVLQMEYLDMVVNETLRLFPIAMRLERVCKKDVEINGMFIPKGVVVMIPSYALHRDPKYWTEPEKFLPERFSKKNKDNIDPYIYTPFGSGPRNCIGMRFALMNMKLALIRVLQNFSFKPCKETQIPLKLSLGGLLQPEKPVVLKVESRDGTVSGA

For `CC(C)(C)OC(=O)NCc1ccc(-c2cccc(C(=O)Nc3ccc(S(N)(=O)=O)cc3)c2)cc1`, the IC50 was 75 nM (CA9; enzyme activity, inhibitor).
The IC50 of `O=C(O)Cc1ccc2c(c1)NC(=O)c1ccc(-c3cccc([N+](=O)[O-])c3)cc1N2` is reported as 2190 nM (CHEK1; enzyme activity, inhibitor).
`O=C(NCCCN1CCCCC1)c1ccc(-c2nc3ccc4[nH]ncc4c3c3c2CCCC3)cc1` has an IC50 of > 1000 nM (FLT3 ITD; enzyme activity, inhibitor).
With `Cn1nccc1[C@]1(CNC(=O)c2cccc(F)c2-c2ccc(C(F)(F)F)cc2)NC(=O)NC1=O` the IC50 was 4.45 nM (A disintegrin and metalloproteinase with thrombospondin motifs 7 (Homo sapiens, UniProt Q9UKP4); enzyme activity, inhibitor, FRET).
`C1=C/COCc2cc(ccc2OCCN2CCCC2)Nc2nccc(n2)-c2cccc(c2)COC/1` gave a remaining binding of 0% (Receptor-type tyrosine-protein kinase FLT3 (FLT3, Homo sapiens, UniProt P36888, D835V); binding; 0.1 µM).
With `CN(C)C(=O)c1cc2cnc(Nc3ccc4c(=O)cc(N5CCNCC5)oc4c3)nc2n1C1CCCC1` the IC50 was 4.1 nM (Cyclin-dependent kinase 4, with cyclin D1 (CDK4, Homo sapiens, UniProt P11802); enzyme activity, inhibitor, radiometric).
`COc1ccc(Cl)cc1NC(=O)Nc1ccc(I)cn1` has an IC50 of 1090 nM (CHEK1; enzyme activity, inhibitor).
For `O=C1C(=Nc2cccc(Cl)c2)c2ccccc2N1Cc1ccc([N+](=O)[O-])cc1`, the IC50 was 25 nM (PIK3CD; enzyme activity, inhibitor, ADP detection).
The IC50 of `Cn1cc(-c2ccc(-n3nc(C(=O)Nc4ccc(S(N)(=O)=O)cc4)cc3-c3ccco3)cc2)nn1` is reported as 1.41 nM (CA9; enzyme activity, inhibitor).
`O=C1Nc2cc(C(O)C(=O)O)ccc2Nc2cc(Cl)ccc21` (centres unmarked) gave an IC50 of 6640 nM (CHEK1; enzyme activity, inhibitor).
For `Cc1cc([C@@H](C)Nc2ccccc2C(=O)O)c2nc(N3CCC(F)(F)CC3)c(C#N)c(=O)n2c1`, the IC50 was > 10000 nM (Phosphatidylinositol 4-phosphate 3-kinase C2 domain-containing subunit alpha (PIK3C2A, Homo sapiens, UniProt O00443); enzyme activity, inhibitor, ADP detection).
With `COc1cccc2c1CCN(C(=O)C1(C(N)=O)CC1)C2` the EC50 was 292 nM (MTNR1A; cAMP, agonist, luciferase).
The IC50 of `O=C1Nc2ccccc2/C1=N/c1ccccc1Br` is reported as 584 nM (PIK3CA; enzyme activity, inhibitor, ADP detection).
For `Fc1ccc(/C=N/N=C/c2ccc(F)cc2F)c(F)c1`, the IC50 was 116000 nM (AMY2; enzyme activity, inhibitor).
`O=C1Nc2ccccc2/C1=N\c1ccc(Cl)cc1` gave an IC50 of 367 nM (PIK3CA; enzyme activity, inhibitor, ADP detection).
The IC50 of `N#Cc1cnc(NC(=O)Nc2cnc3ccccc3n2)cn1` is reported as > 10000 nM (CHEK1; enzyme activity, inhibitor).
`CNc1ncc2c(/C=C/C(=O)N3CCC(OC)CC3)nn(Cc3cccc(C(F)(F)F)c3)c2n1` gave a remaining activity of 94% (Calcium/calmodulin-dependent protein kinase type IV (CAMK4, Homo sapiens, UniProt Q16566); enzyme activity, inhibitor, radiometric; 1 µM).
`CCCC(=O)NCCCN1CCc2c([nH]c3ccc(Cl)cc23)C1` has an IC50 of 9110 nM (Sodium-dependent dopamine transporter (SLC6A3, Homo sapiens, UniProt Q01959, W84C); transporter uptake, inhibitor).
For `CCCCC(=O)Nc1ccc(-c2ccc3ncn(CCC)c(=O)c3c2)cn1`, the remaining binding was 100% (Serine/threonine-protein kinase VRK2 (VRK2, Homo sapiens, UniProt Q86Y07); binding, competition with immobilised ligand; 0.5 µM).
`Fc1cccc(/C=N/N=C/c2cccc(F)c2)c1` gave an IC50 of 332000 nM (AMY2; enzyme activity, inhibitor).
The IC50 of `Clc1ccc(C2(c3ccc(-c4ccnc5[nH]ccc45)cc3)CCNCC2)cc1` is reported as 8 nM (Serine/threonine-protein kinase LATS1 (LATS1, Homo sapiens, UniProt O95835); enzyme activity, inhibitor, radiometric).
`c1cc(CN2CCCNCCNCCCNCC2)ccc1CN1CCCNCCNCCCNCC1` has an IC50 of 81.9 nM (C-X-C chemokine receptor type 4 (Mus musculus, UniProt P70658); ligand displacement in cells, flow cytometry).
For `Cc1csc(Nc2ccc(NC(=O)c3cc(S(N)(=O)=O)cc(C)c3C)cc2)n1`, the IC50 was 174 nM (CA9; enzyme activity, inhibitor).
With `CC[C@@](N)(c1cnc(C(F)(F)F)c(Cl)c1)c1c2ncn(C3CC3)c(=O)c2nn1C` the IC50 was > 20000 nM (Cytochrome P450 2C19 (CYP2C19, Homo sapiens, UniProt P33261); enzyme activity, inhibitor; human, liver microsomes; pH 7.4).
For `CN(C)CCN(C)c1ccc(Cl)cc1NC(=O)Nc1cnc(C#N)cn1`, the IC50 was 11.3 nM (CHEK1; enzyme activity, inhibitor).
`Cc1ccc(NC(=O)CSc2nc3ccccc3cc2C=Nn2c(S)nnc2-c2ccccc2)cc1` has an IC50 of 30900 nM (PPO3; enzyme activity, inhibitor).
With `CN1CCN(c2nccc(-c3cnn4ncccc34)n2)CC1` the IC50 was 955 nM (DYRK1A; cell-free assay, TR-FRET).
`O=C1C(=Nc2ccccc2I)c2ccccc2N1Cc1ccc([N+](=O)[O-])cc1` has an IC50 of 34.6 nM (PIK3CA; enzyme activity, inhibitor, ADP detection).
`COc1cc2ncnc(Nc3ccc4c(c3)/C(=C/c3ccccc3)C(=O)N4C)c2cc1OC` has an IC50 of 337 nM (PIK3CA; enzyme activity, inhibitor, ADP detection).
For `O=C(CSc1nc2ccccc2cc1C=Nn1c(S)nnc1-c1ccccc1)Nc1ccccc1Cl`, the IC50 was 33900 nM (PPO3; enzyme activity, inhibitor).
`CC(=O)Nc1ccc2c(c1)CC(C)N2Cc1ccoc1C(=O)Nc1ccc(S(N)(=O)=O)cc1` (centres unmarked) has an IC50 of 47.9 nM (CA9; enzyme activity, inhibitor).
The remaining activity of `COc1cc(-c2cncc3c2CN(C)Cc2cc(N4CCNCC4)ccc2-3)cc(OC)c1OC` is reported as 31% (PTK6; enzyme activity, inhibitor; 1 µM).
`CC(C)c1cccc(C(C)C)c1N=C1C(=O)N(Cc2ccccc2)c2ccccc21` has an IC50 of 201 nM (PIK3CD; enzyme activity, inhibitor, ADP detection).
For `N#Cc1cnc(NC(=O)Nc2cc(Cl)ccc2OC2CC(O)C(O)C2)cn1` (centres unmarked), the IC50 was 4.57 nM (CHEK1; enzyme activity, inhibitor).
`CN(C)CCNC(=O)c1ccc(-c2nc3ccc4[nH]ncc4c3c3c2CCCC3)cc1` gave an IC50 of 186 nM (Receptor-type tyrosine-protein kinase FLT3 (FLT3, Homo sapiens, UniProt P36888); enzyme activity, inhibitor).
`CCC(NC(=O)Nc1ccc(NC(=O)C2CCCO2)cc1)c1cccc(S(N)(=O)=O)c1` (centres unmarked) gave an IC50 of 615 nM (CA9; enzyme activity, inhibitor).
The IC50 of `NNC(=O)C(=O)N1CCOCC1` is reported as 48000 nM (Beta-2 adrenergic receptor (ADRB2, Homo sapiens, UniProt P07550); calcium signal, antagonist, fluorescence).
For `Cc1nc2c(F)cc(-c3ccnc(Nc4ccc5c(=O)cc(N6CCOCC6)oc5c4)n3)cc2n1C(C)C`, the IC50 was 428 nM (PIK3CD; enzyme activity, inhibitor, radiometric).
For `COc1cc(CNC(=O)c2ccccc2C)cc(Br)c1OC`, the IC50 was 5950 nM (rep papain-like protease; enzyme activity, inhibitor, FRET).
The IC50 of `OC1CCC(NCc2ccc3c(c2)Cc2c-3n[nH]c2-c2ccoc2)CC1` (centres unmarked) is reported as 272 nM (CHEK1; enzyme activity, inhibitor).
`COc1cccc(-c2n[nH]c(SCc3ccccn3)n2)c1OC` has a concentration of 3280 ng/mL (male Sprague-Dawley rat, plasma; intravenous, 1 mg/kg, 10 min, single dose).
With `COc1ccc(C(=O)NCc2ccc(O)c(O)c2)cc1` the IC50 was 11200 nM (Replicase polyprotein 1ab, main protease (rep, Porcine epidemic diarrhea virus, UniProt P0C6Y4); enzyme activity, inhibitor, FRET).
`CCn1nc(C(=O)N2CCc3c(cccc3OC)C2)ccc1=O` gave an EC50 of 44.9 nM (MTNR1A; cAMP, agonist, luciferase).
With `CC(Nc1ccc(Nc2ccccc2)cc1)C(=O)Nc1ccc(S(N)(=O)=O)cc1` (centres unmarked) the IC50 was 39.8 nM (CA9; enzyme activity, inhibitor).
`O=C(NCc1cc(O)c(O)c(Br)c1)N1CCCC1` gave an IC50 of 1860 nM (rep papain-like protease; enzyme activity, inhibitor, FRET).
For `Cc1nc(Nc2ccc3c(c2)/C(=C/c2ccccc2)C(=O)N3Cc2ccccc2)c2ccccc2n1`, the IC50 was 54.6 nM (PIK3CA; enzyme activity, inhibitor, ADP detection).
`CC(C)[C@H]1CN(c2nccc(-c3cnn4ncccc34)n2)CCN1` has an IC50 of 631 nM (DYRK1A; cell-free assay, TR-FRET).
With `Cc1cccc(N=C2C(=O)N(Cc3cccc(Cl)c3)c3ccccc32)c1` the IC50 was 6 nM (PIK3CA; enzyme activity, inhibitor, ADP detection).
`Cc1cccc(/C=N/N=C/c2cccc(C)c2)c1` has an IC50 of 132000 nM (AMY2; enzyme activity, inhibitor).
For `Cc1cccc(N=C2C(=O)N(Cc3ccc(Br)cc3)c3ccccc32)c1`, the IC50 was 78 nM (PIK3CD; enzyme activity, inhibitor, ADP detection).
The IC50 of `O=C(NCCN1CCCC1)c1cc(-c2ccc(CN3CCOCC3)cc2)nc2ccc(F)cc12` is reported as 53000 nM and > 100000 nM and 87000 nM (Cytochrome P450 3A4 (CYP3A4, Homo sapiens, UniProt P08684); enzyme activity, inhibitor; human, liver microsomes; with preincubation, midazolam probe).
With `CN(C)CCN(C)C(=O)c1ccc(-c2nc3ccc4[nH]ncc4c3c3c2CC(F)(F)CC3)cc1` the IC50 was > 1000 nM (FLT3 ITD; enzyme activity, inhibitor).
`C=CC(=O)N1CCC(COCC(=O)N2CCN(c3nc(-c4cnc(N)nc4C(F)F)nc(N4CCOC[C@@H]4C)n3)CC2)CC1` has a remaining binding of 97% (PTK6; binding, competition with immobilised ligand; 1 µM).
`O=c1cc(-c2ccc(O)cc2)oc2c([C@@H]3OC[C@H](O)[C@H](O)[C@H]3O)c(O)c([C@@H]3O[C@H](CO)[C@@H](O)[C@H](O)[C@H]3O)c(O)c12` gave an IC50 of 210 nM (Calcium/calmodulin-dependent protein kinase type II subunit delta (CAMK2D, Homo sapiens, UniProt Q13557); enzyme activity, inhibitor).
`CC(c1cccc(S(N)(=O)=O)c1)N(C)C(=O)c1ccc(NC2=NS(=O)(=O)c3ccccc32)cc1` (centres unmarked) gave an IC50 of 75 nM (CA9; enzyme activity, inhibitor).
With `O=C1Nc2ccccc2Nc2cc(-c3ccccc3C(=O)O)ccc21` the IC50 was > 10000 nM (CHEK1; enzyme activity, inhibitor).
`CC(c1ccc(S(N)(=O)=O)cc1)N(C)CC(=O)NC(c1cccs1)C(C)(C)C` (centres unmarked) has an IC50 of 75 nM (CA9; enzyme activity, inhibitor).
With `Cc1ccc2oc(=O)cc(NCCO)c2c1` the IC50 was 302000 nM (Alpha-1B adrenergic receptor (ADRA1B, Homo sapiens, UniProt P35368, V197I); calcium signal, antagonist).
`CN(C)C(=O)c1cc2cnc(Nc3ccc(-c4cccc5c(=O)cc(N6CCOCC6)oc45)cc3)nc2n1C1CCCC1` gave an IC50 of 127 nM (PIK3CD; enzyme activity, inhibitor, radiometric).

Some of these lines once more:
With `CC[C@@](N)(c1cnc(C(F)(F)F)c(Cl)c1)c1c2ncn(C3CC3)c(=O)c2nn1C` the IC50 was > 20000 nM (Cytochrome P450 2C19 (CYP2C19, Homo sapiens, UniProt P33261); enzyme activity, inhibitor; human, liver microsomes; pH 7.4).
For `CN(C)CCN(C)c1ccc(Cl)cc1NC(=O)Nc1cnc(C#N)cn1`, the IC50 was 11.3 nM (CHEK1; enzyme activity, inhibitor).
`Cc1ccc(NC(=O)CSc2nc3ccccc3cc2C=Nn2c(S)nnc2-c2ccccc2)cc1` has an IC50 of 30900 nM (PPO3; enzyme activity, inhibitor).
With `CN1CCN(c2nccc(-c3cnn4ncccc34)n2)CC1` the IC50 was 955 nM (DYRK1A; cell-free assay, TR-FRET).
`O=C1C(=Nc2ccccc2I)c2ccccc2N1Cc1ccc([N+](=O)[O-])cc1` has an IC50 of 34.6 nM (PIK3CA; enzyme activity, inhibitor, ADP detection).
`COc1cc2ncnc(Nc3ccc4c(c3)/C(=C/c3ccccc3)C(=O)N4C)c2cc1OC` has an IC50 of 337 nM (PIK3CA; enzyme activity, inhibitor, ADP detection).
For `O=C(CSc1nc2ccccc2cc1C=Nn1c(S)nnc1-c1ccccc1)Nc1ccccc1Cl`, the IC50 was 33900 nM (PPO3; enzyme activity, inhibitor).
`CC(=O)Nc1ccc2c(c1)CC(C)N2Cc1ccoc1C(=O)Nc1ccc(S(N)(=O)=O)cc1` (centres unmarked) has an IC50 of 47.9 nM (CA9; enzyme activity, inhibitor).
The remaining activity of `COc1cc(-c2cncc3c2CN(C)Cc2cc(N4CCNCC4)ccc2-3)cc(OC)c1OC` is reported as 31% (PTK6; enzyme activity, inhibitor; 1 µM).
`CC(C)c1cccc(C(C)C)c1N=C1C(=O)N(Cc2ccccc2)c2ccccc21` has an IC50 of 201 nM (PIK3CD; enzyme activity, inhibitor, ADP detection).
